Measurements of several laboratories.
Every numbered part comes from another study and shows a few of its results, in no order. Substitutions count along the parent as printed.

Study 1 — method: aptamer microarray, sandwich; form: DNA with 2'F-ANA; matrix: in vitro; tested at: 200 nM; together with: Cy3 exosite-II aptamer, 400 nM; reading: higher = stronger binding; strand: GGTTGGTGTGGTTGG
Target: Prothrombin, mature alpha-thrombin (F2, Homo sapiens, UniProt P00734)
Notes: whole 15-mer aptamer, many near background
Modification	mean fluorescence intensity
2'F-ANA at 5 6 9 11 14	47.9 a.u.
2'F-ANA at 1 2 4 5 11	47.6 a.u.
2'F-ANA at 1 5 6 8 9 10 11 15	47.3 a.u.
2'F-ANA at 3 4 6 7 9 11 12 13 14 15	222 a.u.
2'F-ANA at 2 3 5 6 8 13 15	102 a.u.
2'F-ANA at 1 2 3 4 6 8 11 14	61.5 a.u.
2'F-ANA at 3 4 10 11 12 13	362 a.u.
2'F-ANA at 1 3 5 7 8 9 10 11 13	48.9 a.u.
2'F-ANA at 2 3 4 6 7 10 11 13	191 a.u.
2'F-ANA at 2 4 5 8 12 13 14	48.4 a.u.
2'F-ANA at 1 5 14 15	42.5 a.u.
2'F-ANA at 1 6 8 9 13 14 15	53.3 a.u.
2'F-ANA at 2 3 9 10 15	383 a.u.

Study 2 — method: RNA Bind-n-Seq; form: RNA; matrix: in vitro; tested at: 200 nM; notes: whole 134-nt RNA, ends assumed; together with: 150 mM KCl; relative to: input library; reading: higher = stronger binding
Target: Fragile X messenger ribonucleoprotein 1, C-terminal low-complexity region (Fmr1, Mus musculus, UniProt P35922)
Shared flanks, not repeated: GGGAGUUCUACAGUCCGACGAUC … UGGAAUUCUCGGGUGUCAAGG
Strand	log2 enrichment
ACCAUGCAGGUGGAAAUCUUUGGGAAGUGGGGCAAGGGGGGGAUAGGGAGGGGGGUAACACUUUGGGAACAGGUGGUCCCAGGUCGUUUC	0.879
AGUCCUGUGCUACACAUCGUAUGUACCGAAUCGGGGCCCCGGGCCCCGGGCCCCGGGAAAGUAUUAUGUUACGCCGUUCGGAUCUGCACU	0.0013
UGCAUCUGCACUGGAGAAAUGGAAGACAGCAAUCCGGGAAGCUCAGACUUUCUCCAGGAUGCACGUGCUGCUUGGGAUGCUUGAUGCCUG	-0.208
UCCUGUGCUACACAUCGUAUGUACCGAAUCGGGGUUUUUGGGGUUUUUGGGUUUUUGGGAAAGUAUUAUGUUACGCCGUUCGGAUCUGCA	0.527
CACAGACAACACGCACCCACACAGACACAGAGGGAAGGGGUUGGGAUGGUGACAGGGUGCACAGCAGGGCGGGGUAGGACCCCAGCCCCU	0.752
UUUCUCCAAGGACAUCAAGGUGCCCAAGAGCCGCUACCUGGGCUACAUCAAGGACUACGAGGGAGCGACGCUGAUGGAGUGUGAGCUGAA	-1.18
AGUCCUGUGCUACACAUCGUAUGUACCGAAUCGGGAAAGGGAAAAAAAGGGUUUGGGAAAGUAUUAUGUUACGCCGUUCGGAUCUGCACU	0.0682
ACCAUGCAGGUGGGCAUCUUUGGGAAGUGGGGCAAGGGGGGGAUAGGGAGGGGGGAAACACUUUGGGAACAGGUGGUCCCAGGUCGUUUC	1.02
UUCCUCAAGUCCUGUGCUACACAUCGUAUGUACCGAAUCGGUGGAGGAGGAAAGUAUUAUGUUACGCCGUUCGGAUCUGCACUUCCAGCA	-0.922
UGGGAGGUGGAUUUUGUUUAUUUUUUUAGCUCAUUUCCAGGGGUGGGAAUUUUUUUUUAAUAUGUGUCAUGUAUAAAGUUGUUUUUGAAA	0.518
GUCCUGUGCUACACAUCGUAUGUACCGAAUCGGGGAAAAAGGAAAAAGGGAAAAAGGGGAAAGUAUUAUGUUACGCCGUUCGGAUCUGCA	-0.116
AAGUCCUGUGCUACACAUCGUAUGUACCGAAUCGGUUUUUUUGGUUUUUGGUUUGGAAAGUAUUAUGUUACGCCGUUCGGAUCUGCACUU	-0.835
GCAGGAAGUAAAAACAAAUGGAAAUGCUUCAAAUAGUGGCAGGGGUGGGGGUUGCUAAGGAAAGGGUGGGAUGGGAGUGGGUAAAGAGUU	0.414
GCAGGAAGUAAAAACAAAUGGAUAUGCUUCGGAUAGUGGCAGGGGUGGGGGUUGCUAAGGAAAGGGUGGGAUGGGAGUGGGUAAAGAGUU	-0.00265

Study 3 — method: DHFR PCA, deep sequencing; matrix: yeast; together with: (+)-ABA 4.8 µM; relative to: wild-type fitted maximum; reading: higher = stronger binding
Target: ABI1, truncated, D143A, DHFR fusion (Arabidopsis thaliana)
Notes: methotrexate growth selection, single substitutions
Parent: PYL1, truncated, DHFR fusion (Arabidopsis thaliana); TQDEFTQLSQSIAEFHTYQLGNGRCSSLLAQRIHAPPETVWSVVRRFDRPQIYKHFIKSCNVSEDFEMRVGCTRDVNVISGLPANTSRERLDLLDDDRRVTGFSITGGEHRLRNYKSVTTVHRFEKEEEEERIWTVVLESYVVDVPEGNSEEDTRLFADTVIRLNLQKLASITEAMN; partner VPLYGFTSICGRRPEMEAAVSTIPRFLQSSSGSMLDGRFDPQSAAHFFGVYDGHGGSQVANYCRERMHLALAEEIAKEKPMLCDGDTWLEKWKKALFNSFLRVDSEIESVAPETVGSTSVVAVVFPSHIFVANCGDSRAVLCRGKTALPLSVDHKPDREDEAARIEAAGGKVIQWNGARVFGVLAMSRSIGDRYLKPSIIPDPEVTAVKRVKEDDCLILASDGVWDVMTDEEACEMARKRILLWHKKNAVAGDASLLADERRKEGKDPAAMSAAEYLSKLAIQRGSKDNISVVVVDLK
Variant	relative binding score
E147N	55.7%
E14G	9.56%
C60L	1.74%
C72W	26.7%
V40S	-2.57%
P146I	6.11%
T86G	62.1%
W41L	16.8%
R113V	65.5%
E152P	19.3%
E130L	60.3%
C72R	22%
D159M	-1.16%

Study 4 — method: RNA Bind-n-Seq; form: RNA; matrix: in vitro; tested at: 365 nM; relative to: no-protein control; reading: higher = stronger binding
Target: RNA binding protein fox-1 homolog 2, RRM domain, GST-SBP tag (RBFOX2, Homo sapiens, UniProt O43251-10, residues 100-194)
Notes: natural RNA segment, single round, ends assumed
Shared flanks, not repeated: GGGAGUUCUACAGUCCGACGAUC … UGGAAUUCUCGGGUGCCAA
Residues (chain): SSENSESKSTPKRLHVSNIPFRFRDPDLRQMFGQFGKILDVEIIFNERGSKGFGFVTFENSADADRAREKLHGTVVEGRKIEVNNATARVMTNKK
Strand	RBNS enrichment (R)
GGGUUGCCAGGGAUAAAGAGCUUCCUCACUGGAUGGGACCCGCCUUUCUGUGUUGUGUUCUGCCCUGUGCUCUUCUCUCUACGUUAACGUUUCCUGUAGUAUGUUUCUUC	0.385
CAUUCUGUAAAUCCUGAUGAUCGAUUUUGUCUAAGUAGCCCCACUGAGGCGUUGAGAAUGGGGCAUGCAGAUUAUAAAAACACAACUGGAGAAAUCAGCAGCAAAGAAGA	0.866
GAAUCUGUCAUCUCAGGCAAUAAUGUGUAGGUGUCACCAUGAGUCACAUACAGUUCUUUUUAGGCAUGAGUGUGUAUUACUGAUCCAACAUCUUCAUUCAUUCACUGAGU	0.329
GCUUUGAUCCAUAUUUCUCACAGUGCUGUAUUAAAAAAUAGAACCUAAGGCAGAUAGCCACCUUUACAUUGUGAGUGUGUUUACCUUGUCUAAUGACGGAUAAUUCCUUA	0.446
AAGGAUACAAAAUGCAAAAUCCACAAUUUUGAUAACUGAAAAUUGCCAAUUGUUUUGCAGUACUUUAUUAUAUUGGGUGUCUUGUCUUUUUUGGGCUUUUAGUUAGCUAA	0.46
AUUCCCAGUUCCUCCAGUGCCAGUACUUUAGCUUGGCCUAGCCCCAGUCUCAGGAACUGUUGUGGUGCCCCUGAGCCCACAGUCAUCUCCAGAGUCCACCUGGAAGCCUG	0.322
GGACACCUGAGUCUCUUCCUCUUGUUCCUUCCACUAUGAGGCUCUGAGCCUCUCUGUGCCUUGGGCCCUAAAGCCCCAUGUGUAGUAUAGAGCAAAGGUGAUUCCUGGUG	0.153

Study 5 — method: RNAcompete; form: RNA; matrix: in vitro; tested at: 20 nM; notes: 7-mer, probes averaged, single round; relative to: mean of 7-mers; reading: higher = stronger binding
Target: PABPC1L2, full length, GST fusion (mouse, UniProt A0ABA7IW68)
Residues (chain): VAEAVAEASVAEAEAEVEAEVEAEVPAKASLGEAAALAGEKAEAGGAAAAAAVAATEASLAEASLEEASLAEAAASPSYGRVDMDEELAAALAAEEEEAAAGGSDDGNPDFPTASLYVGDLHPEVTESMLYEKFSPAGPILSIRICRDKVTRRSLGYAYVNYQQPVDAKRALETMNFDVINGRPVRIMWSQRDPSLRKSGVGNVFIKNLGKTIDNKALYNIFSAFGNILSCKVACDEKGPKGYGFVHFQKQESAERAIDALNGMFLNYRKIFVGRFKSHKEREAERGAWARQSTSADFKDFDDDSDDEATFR
Strand	7-mer Z-score
UAUUACU	-0.331
GAUCGGA	-0.0428
AGACCCG	-0.311
GUGAAGA	-0.0428
CAUUGGG	0.0913
GUCCGUA	-0.237
GUCACUG	-0.28
GUUUCGU	-0.605
UCCUGGU	-0.304
CAAGGCC	-0.161
CCCCUGG	-0.398
AAAGUGU	1.64
AGGGAAU	0.129
GUAGCGU	-0.208
AGAAGGC	0.117
AACAAGA	0.802
GGGACUU	0.311
UCCCCAC	-0.434
GUGGAGC	0.146
GAAUCAG	0.0768
GUACCCG	-0.293
CUAUCAA	-0.0319

Study 6 — method: protein-binding microarray; form: double-stranded DNA, one strand shown; matrix: in vitro; tested at: 940 nM top; notes: 60-bp whole probe; together with: salmon DNA 0.4 mg/ml; relative to: random background probes; reading: higher = stronger binding; shared flanks, not repeated: GCCTAGCAC … GTCTTGATTCGCTTGACGCTGCTG
Target: Interferon regulatory factor 5, full length, phosphomimetic (IRF5, Homo sapiens, UniProt Q13568-2, residues 1-514, S451D/S453D/S456D/S462D)
Strand	fitted relative affinity
TTAGTTATCAGTCTCGATTAGTGCTAG	3.09 z-score
GACGGTCTCGGACTGGGCACGTGCTAG	0.388 z-score
TTCCTTTACTTTCTTTTTTTGTGCTAG	3.28 z-score
GACGGTTTCGACTTTAGGGACGTGCTA	7.07 z-score
TCATTAATCACATATACAACTGTGCTA	1.09 z-score
TCATTTTTCTAACCCATACTGTGCTAG	1.42 z-score
ACACTACCTGACTTCAAACTGTGCTAG	0.782 z-score
GACGGTATCCACACTGGGGACGTGCTA	0.0761 z-score
TCAGTTTCCAGTATATTACTGTGCTAG	1.37 z-score
GCTTTTATGGTATTTTTTTCGTGCTAG	1.27 z-score
GACGGTATCGGGTATCGCGACGTGCTA	5.78 z-score
TCATGTCTGGGATGTAATACTGTGCTA	0.0644 z-score
GGCAGGAATAAAGGAGCAGCGTGCTAG	-0.923 z-score

Excerpt of the above (study 3):
Variant	relative binding score
E147N	55.7%
E14G	9.56%
C60L	1.74%
C72W	26.7%
V40S	-2.57%
P146I	6.11%
T86G	62.1%
W41L	16.8%
R113V	65.5%
E152P	19.3%
